Assay results collected from several papers.
Each numbered part is a random draw from the data of one study; scales do not carry over between parts.

Block 1
Target: Histone acetyltransferase KAT6A, winged helix 2, GST fusion (KAT6A, Homo sapiens, UniProt Q92794, residues 85-181)
Method: protein binding microarray
Form: double-stranded DNA, one strand shown
Medium: in vitro
Tested at: not given
Setting: 8-mer, flanks averaged, mean of 2 arrays, mostly near background
Baseline: not given
Direction: higher = stronger binding
Construct (chain): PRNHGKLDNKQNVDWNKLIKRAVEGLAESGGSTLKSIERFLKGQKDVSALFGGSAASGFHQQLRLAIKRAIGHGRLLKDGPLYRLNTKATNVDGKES
| Sequence | E-score |
| --- | --- |
| AAGTTTGA | -0.13 |
| AATGCTAC | 0.209 |
| GCGGATCC | 0.0386 |
| GGGAGGGA | 0.175 |
| AACATGAT | -0.0508 |
| AGCGCACA | 0.00212 |
| AATGCAGG | 0.0871 |
| TAGCTTGA | 0.0232 |
| ATATCAAC | 0.0166 |
| GCGGGTCC | 0.0988 |
| GAAAGAAA | 0.131 |
| CACTGGGC | -0.0391 |
| GATTATAC | 0.0193 |
| CCCTTGCA | -0.123 |
| AGCTGCAA | -0.0734 |
| CTACTTTC | -0.0729 |
| CAGTAATC | -0.0289 |
| ATTGCTTC | -0.00492 |
| GGTACGGA | -0.0766 |

Block 2
Target: RNA binding protein fox-1 homolog 2, RRM domain, GST-SBP tag (RBFOX2, Homo sapiens, UniProt O43251-10, residues 100-194)
Method: RNA Bind-n-Seq
Form: RNA
Medium: in vitro
Tested at: 365 nM
Setting: natural RNA segment, single round, ends assumed
Baseline: no-protein control
Direction: higher = stronger binding
All sequences stand within: GGGAGUUCUACAGUCCGACGAUC … UGGAAUUCUCGGGUGCCAA
Construct (chain): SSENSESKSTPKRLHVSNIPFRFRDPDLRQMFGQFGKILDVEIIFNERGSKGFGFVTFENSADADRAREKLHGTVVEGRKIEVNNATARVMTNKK
| Sequence | RBNS enrichment (R) |
| --- | --- |
| UACUGCUGUUUGACUUUCCCCUUGACAUUUCUCAGAAAAAUGCAGGGCUGCAGCUGAGAGCAGACUGCUGAUUGGUGACUCUGGUCUGCCUAGCUUUUGCAACUCUUUAA | 0.817 |
| UCAUUUGUCCUUUGUCUAGGAGAGGACAGGACUCUCUUUUUCCUCUUCCUGGUAGUUGUAAUGACCACUCCCAUAAGGGCUAUAACUGUUCUUCACAGGUGGCCCUGCUC | 0.365 |
| AUAUUUGAUAAUUAUAUUUGUAUUUCACCACCUAAAUGUAAUGUUGAUUCCUCAAGAAUGAAAUGAAGGCACUACAUUGAAAUAUGUUUUGUAUAAAUUUGUCAUGUUGA | 0.543 |
| AAGGAGGGUAGAAUAAGCAUUUAUUCCCCUGCCUUCCAAAUUGAAGAGGAGGACUUGGCCUCAAGCCUGAAGAACAAAAGUCUCAGAAAGCAAAGAACAGCAUCACCUUG | 0.769 |
| GAAACGGGCUCACCUGGACUAUAGAAUUUCUGCUGGUCAGAUAAAGACAGCAUUCCUCGGGAACCCGUGAAACUGGUUCUCUCUCUACCAAAUGGAGUCAUUCUCCUUAC | 0.338 |
| GUGACUGGUGACUCUCAGGCAGGCAUGACAAAUUGCUGGCCUCCAUUCUUGGCCUUCCUAAUCACUCCCCACUCCUCUAGUCACAGUGUGGCUGAGGACUCAAGGCUGUG | 0.278 |
| CUGAAGCCUCUUCUCAGAACACUGUGAAGAUAAUACUGACAGUAGAAUCAGUGAAAACAGCCUAACAAAACCUCUGACAUCAGUAUAUCAACUUUUAACAGCCCACUCAC | 0.439 |
| UAAACCCCUCCGGCUUGAGGAGAGUGCAAUCAUGGCUCUGCUGCCUGCACUUGCUGGGUUCCUCCCCUCUGCCUCCUUUCUUGAACUCAGAGGUAGGGACUAAGCACCAG | 0.334 |
| UAUGAAUAAUGCUCAUUUUCACAGUCAGAAUAGCUUUAAAAUAUGGUUGAAUUUGAUACACACAGGAAGUUUUCUUGAAGAACAAUCCUUUCGCUUUUCUUUUUUCUUGA | 0.812 |
| UAGCUUUCUCUGGCAUUAGGGAGAGAGAACCCUGCUUGCUUCCACUUAACUCCUGGUGGAAGAGGGGCAGGCACGUUCGAAGCUUCUGGAUUCAUUUUUCCUCCACUUUC | 0.396 |
| UGAAAAUCCAUUGUUAUCUUAGGGAUUAGUUUUGAAAAGCCCCCGUUUAUAUACAUUUGCCCUAACAUAGGAAGUAUUGUGUAGUUUCUCAUUGUCAUUUUAUCUGUAUC | 0.623 |
| GGUUGACAGGCCUGUGAAAUCCCCUGUCCCACCCUGGAAUUUCAAAUAAAGAGCUUUUUACCCCUUCUUGCGUGGUGCAUAGGGGACGGGAAGCUGGGAACUAGUCAGAG | 0.393 |

Block 3
Target: Sal-like protein 4, full length isoform A (SALL4, Homo sapiens, UniProt Q9UJQ4, residues 1-1053)
Chain of UniProt Q9UJQ4 (whole entry, looked up): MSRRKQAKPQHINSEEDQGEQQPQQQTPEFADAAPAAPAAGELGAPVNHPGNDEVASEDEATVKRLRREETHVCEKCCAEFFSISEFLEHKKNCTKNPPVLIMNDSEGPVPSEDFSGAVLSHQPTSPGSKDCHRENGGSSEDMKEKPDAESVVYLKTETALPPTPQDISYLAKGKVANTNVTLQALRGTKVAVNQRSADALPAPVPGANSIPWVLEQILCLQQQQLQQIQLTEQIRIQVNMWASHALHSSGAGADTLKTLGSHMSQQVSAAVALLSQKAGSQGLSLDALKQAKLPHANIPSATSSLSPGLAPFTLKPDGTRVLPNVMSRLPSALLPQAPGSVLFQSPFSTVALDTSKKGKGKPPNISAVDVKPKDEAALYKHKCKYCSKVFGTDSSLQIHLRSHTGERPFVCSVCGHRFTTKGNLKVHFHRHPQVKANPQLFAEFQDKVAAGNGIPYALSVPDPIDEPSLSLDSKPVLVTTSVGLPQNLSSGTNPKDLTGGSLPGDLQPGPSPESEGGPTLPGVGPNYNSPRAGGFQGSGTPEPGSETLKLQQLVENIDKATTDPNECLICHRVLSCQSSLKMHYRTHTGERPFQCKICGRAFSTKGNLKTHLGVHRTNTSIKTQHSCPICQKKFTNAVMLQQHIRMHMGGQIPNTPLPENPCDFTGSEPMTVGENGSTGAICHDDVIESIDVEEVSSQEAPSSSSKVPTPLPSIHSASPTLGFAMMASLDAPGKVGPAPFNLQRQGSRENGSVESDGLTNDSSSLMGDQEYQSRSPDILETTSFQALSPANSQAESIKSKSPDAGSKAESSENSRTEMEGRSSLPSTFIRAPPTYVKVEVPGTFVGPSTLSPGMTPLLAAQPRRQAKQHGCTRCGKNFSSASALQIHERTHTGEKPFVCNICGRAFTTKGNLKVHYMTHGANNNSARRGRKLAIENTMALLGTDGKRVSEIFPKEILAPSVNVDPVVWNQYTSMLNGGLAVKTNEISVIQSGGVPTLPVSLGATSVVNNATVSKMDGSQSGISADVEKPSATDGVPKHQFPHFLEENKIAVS
Method: universal PBM
Form: double-stranded DNA, one strand shown
Medium: in vitro
Tested at: 600 nM
Setting: 8-mer, flanks averaged, mean of replicates
Direction: higher = stronger binding
| Sequence | E-score |
| --- | --- |
| CAGGACGC | -0.158 |
| ACGGCTCC | -0.187 |
| ATCATCCA | 0.0952 |
| ACGGGGTA | -0.268 |
| GACAACTA | 0.143 |
| CTTCCGCA | -0.101 |
| GTATCTTA | 0.307 |
| TCCGGTAA | 0.0345 |
| CGGGAATA | 0.0507 |
| GCCCCTCC | -0.284 |
| ACGTGCCC | -0.265 |
| AGTACGTA | 0.169 |
| AACCGCCG | -0.219 |
| CAAAGACA | 0.0981 |
| CCCTGCGC | -0.21 |
| ATCAACTG | -0.00545 |

Block 4
Target: Interferon regulatory factor 3, full length, phosphomimetic (IRF3, Homo sapiens, UniProt Q14653, residues 1-427, S386D/S396D/S398D/S402D/T404D/S405D)
Method: protein-binding microarray
Form: double-stranded DNA, one strand shown
Medium: in vitro
Tested at: 2540 nM top
Setting: 60-bp whole probe
Added: salmon DNA 0.4 mg/ml
Baseline: random background probes
Direction: higher = stronger binding
All sequences stand within: GCCTAGCAC … GTCTTGATTCGCTTGACGCTGCTG
Construct (chain): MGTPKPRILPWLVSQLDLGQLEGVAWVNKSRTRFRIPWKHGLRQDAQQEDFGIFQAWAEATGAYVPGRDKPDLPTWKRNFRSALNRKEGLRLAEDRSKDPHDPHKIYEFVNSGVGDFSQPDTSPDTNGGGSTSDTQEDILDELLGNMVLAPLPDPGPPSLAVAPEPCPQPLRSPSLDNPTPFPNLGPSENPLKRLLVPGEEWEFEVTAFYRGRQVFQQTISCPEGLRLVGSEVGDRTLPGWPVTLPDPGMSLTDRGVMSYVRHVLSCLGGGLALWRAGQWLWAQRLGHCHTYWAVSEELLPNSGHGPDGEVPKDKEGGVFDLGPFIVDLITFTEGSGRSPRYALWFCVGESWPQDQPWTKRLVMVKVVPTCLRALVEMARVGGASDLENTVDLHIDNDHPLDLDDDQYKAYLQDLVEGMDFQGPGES
| Sequence | fitted relative affinity [z-score] |
| --- | --- |
| ACTGCATTCCCTTTCTCAACGTGCTAG | 4.14 |
| TCAGATTTACAAACTGTGACTGTGCTA | 0.467 |
| TTAGGTTCCGACTATCGGTTAGTGCTA | 3.19 |
| TTAGGTTCCGGTTTCCGTTAGTGCTAG | 6.88 |
| CCACTCTTGCTTTTTAGATCGTGCTAG | 1.52 |
| TCATCGTAAGCAAAAATACTGTGCTAG | -0.146 |
| TGTTGTCTGTGTTTCCTTGTGTGCTAG | 1.32 |
| TCATTACTTTCTATCTCACTGTGCTAG | 3.13 |
| TTAGGTCTGCTTTTCCTTTAGTGCTAG | 0.924 |
| TTAGGACTGCTAGTGCTTTAGTGCTAG | -0.821 |
| GACGATTTCACTTCCGAGACGTGCTAG | 3.31 |
| CACCAGCGAGGGCCCGGGAGGTGCTAG | -0.907 |
| TTAGATCTCAGTTTCGATTAGTGCTAG | 3.73 |
| TTAGGACTGCTTATCGTTTAGTGCTAG | -0.324 |
| GAAGGACTGCTTATCCTGACGTGCTAG | -0.334 |
| TTAGATTCCTGTTTCGATTAGTGCTAG | 4.12 |
| GTGAGTCCCAAGAATGGTGTGGTGCTA | -0.729 |
| TTAGGTATCGGGACGGGGTTAGTGCTA | 0.728 |
